Values quoted from earlier work as cited in several papers.
Each line is one published result; not all experiments were run side by side. ± gives the spread as reported.

| SMILES | assay | test system | setting | quantity | value |
| --- | --- | --- | --- | --- | --- |
| C[C@@H]1O[C@@H](O[C@@H]2CO[C@@H](Oc3c(O)cc(-c4oc5cc(O)cc(O)c5c(=O)c4O[C@@H]4O[C@@H](C)[C@H](O)[C@@H](O)[C@H]4O[C@@H]4O[C@H](COC(=O)/C=C/c5ccc(O)c(O)c5)[C@@H](O)[C@H](O)[C@H]4O[C@@H]4O[C@H](CO)[C@@H](O)[C@H](O)[C@H]4O)cc3O)[C@H](O)[C@H]2O)[C@H](O)[C@H](O)[C@H]1O | antihyperglycaemic | Zucker diabetic fatty rat, plasma | dose not given | blood glucose | decreased |
| CC(C)C[C@@H](NC(=O)[C@H](C)NC(=O)CNC(=O)[C@@H](NC=O)C(C)C)C(=O)N[C@@H](C)C(=O)N[C@@H](C(=O)N[C@H](C(=O)N[C@@H](C(=O)N[C@@H](Cc1c[nH]c2ccccc12)C(=O)N[C@H](CC(C)C)C(=O)N[C@@H](Cc1c[nH]c2ccccc12)C(=O)N[C@H](CC(C)C)C(=O)N[C@@H](Cc1c[nH]c2ccccc12)C(=O)N[C@H](CC(C)C)C(=O)N[C@@H](Cc1c[nH]c2ccccc12)C(=O)NCCO)[C@H](C)O)C(C)C)C(C)C | H+/Na+ exchange | EYPC/EYPG liposomes | – | EC50 | 1.6 nM |
| CC(=N)NCc1cccc(CN)c1 | – | hippocampal slices | 1 µM | long-term potentiation | decreased |
| C=CC(OS(=O)(=O)O)c1ccc(OC)cc1 (stereo not shown) | – | human, liver | sulfonation | catalytic efficiency | 0.1 mL/h/g liver |
| CC(C)(O)c1ncc([S@](N)(=O)=NC(=O)Nc2c3c(cc4c2CCC4)CCC3)s1 | IL-1β release | human whole blood | plasma concentration, together with: LPS | IC50 | 330 nM |
| CC(=O)N[C@H](CSSC[C@H](N)C(=O)O)C(=O)N[C@H](C)C(=O)N[C@H](CCCNC(=N)N)C(=O)N[C@H](CCCNC(=N)N)C(=O)N[C@H](CCCNC(=N)N)C(=O)N[C@H](C)C(=O)N[C@H](CCCNC(=N)N)C(N)=O | – | 5/6 nephrectomized rat | dose not given | plasma PTH level | decreased |
| NS(=O)(=O)c1ccc(N2N=C(C(F)(F)F)CC2c2ccc(F)cc2F)cc1 (stereo not shown) | PGE2 formation | rat, carrageenan model, gastric mucosa | 40 mg/kg | inhibition | 10% |
| CN1CCN(C(=O)N(CCCCCCC(=O)NO)c2ccc(-c3ccc4cnn(C)c4c3)cc2)CC1 | – | lymphoma and myeloma patients | dose not given, phase I | stable disease or better | 44.4% |
| CO[C@@H]1[C@H](O)[C@@H](COP(=O)(O)OP(=O)([O-])OP(=O)(O)OP(=O)(O)OC[C@H]2O[C@@H](n3cnc4c(=O)[nH]c(N)nc43)[C@H](O)[C@@H]2O)O[C@H]1n1c[n+](C)c2c(O)nc(N)nc21 | cap-dependent translation, inhibitor | rabbit reticulocyte lysate | no preincubation | IC50 | 2800 ± 200 nM |
| C=CC(OC1OC(C(=O)O)C(O)C(O)C1O)c1ccc(OC)cc1 (stereo not shown) | – | male rat, liver | glucuronidation | scaled Vmax | 60 µmol/h/g liver |
| CC#N.Cc1ccc(O)c(CN(CCN(Cc2ccccn2)Cc2ccccn2)Cc2ccccn2)c1.[Mn+2] | – | – | pH 7.4, 298 K | water exchange rate constant | 1.3e+08 s⁻¹ |
| C[n+]1cn([C@@H]2O[C@H](COP(=O)([O-])OP(=O)(O)CP(=O)(O)OP(=O)(O)OC[C@H]3O[C@@H](n4cnc5c(=O)[nH]c(N)nc54)[C@H](O)[C@@H]3O)[C@@H](O)[C@H]2O)c2nc(N)nc(O)c21 | cap-dependent translation, inhibitor | rabbit reticulocyte lysate | no preincubation | IC50 | 4600 ± 600 nM |
| CC1=CCC23OC2(C)CCC2C(CN(C)C)C(=O)OC2C13.Cl (stereo not shown) | – | Lewis lung carcinoma model | ip and intratumoural, dose not given | tumour growth inhibition | 86 to 90% |

A few entries again:
| SMILES | assay | test system | setting | quantity | value |
| --- | --- | --- | --- | --- | --- |
| CC#N.Cc1ccc(O)c(CN(CCN(Cc2ccccn2)Cc2ccccn2)Cc2ccccn2)c1.[Mn+2] | – | – | pH 7.4, 298 K | water exchange rate constant | 1.3e+08 s⁻¹ |
| CC(=N)NCc1cccc(CN)c1 | – | hippocampal slices | 1 µM | long-term potentiation | decreased |
